Results of several laboratories.
Protocols differ between the studies behind these lines.
Target: Phosphatidylinositol 4-phosphate 3-kinase C2 domain-containing subunit beta (PIK3C2B, Homo sapiens, UniProt O00750)

Compound	assay	conditions	quantity	result
CC(=O)c1cnc(N)nc1N1CC[C@H]1c1nn2ccc(Cl)c2c(=O)n1-c1ccccc1	KINOMEscan competition binding	10 µM	remaining binding	60%
COc1c(Cl)cccc1Nc1c(-c2ccncc2C#C[C@@]2(C)CCCN2C(=O)/C=C/CN(C)C)[nH]c2c1C(=O)NCC2	cell-free assay, competition with immobilised ligand	3 µM	remaining binding	50%
Nc1ncc2c(n1)-c1c([nH]c3ccc(C4=CCOCC4)cc13)CCC2	binding, competition with immobilised ligand	1 µM	remaining binding	79%
COc1cc(Nc2nccc(-c3cnn4nc(OC)ccc34)n2)cc(C(F)(F)F)c1	binding, competition with immobilised ligand	1 µM	remaining binding	78%
CNC(=O)C1CCN(c2cc(C)c(F)cc2NC(=O)c2ccc(-c3cc(O)ccc3C)c(C)c2)CC1	binding, competition with immobilised ligand	1 µM	remaining binding	77%
COc1ccc(NC(=O)Nc2ccc3c(c2)C(=O)N(C(C)CO)CC(C)C(CN(C)Cc2ccc4c(c2)OCO4)O3)cc1 (stereo not drawn)	binding, competition with immobilised ligand	10 µM	remaining binding	96%
Cc1cc(NC(=O)[C@H](O)c2cc(F)cc(F)c2)ccc1-c1cnc(N)c(C(=O)NC(C)C)c1	binding, competition with immobilised ligand	0.1 µM	remaining binding	85%
C=C1CCCCCCCCCC(CO)C1=O (stereo not drawn)	cell-free assay	10 µM	remaining signal	70%
CN1CCN(Cc2ccc(-c3ccc(CO[C@H]4CCC[C@@H]4NC(=O)c4cc(-c5cnn(C)c5)cnc4N)cc3)cc2)CC1	enzyme activity, inhibitor	0.1 µM	inhibition	-5%
C=CC(=O)N1Cc2nc(-c3cc(-c4cc(Cl)cnc4Cl)c(F)cc3F)n(-c3ccncn3)c2C1	cell-free assay, inhibitor	1 µM	inhibition	-14.4%
CN1CCN(Cc2ccc(NC(=O)c3cccc(C#Cc4cnc(N)c5ncccc45)c3)cc2C(F)(F)F)CC1	cell-free assay, competition with immobilised ligand	50 nM	remaining binding	85%
Cc1ccc(-c2c(/C=C(\C#N)C(=O)NC(C)C)n(CCCO)c3ncnc(N)c23)cc1	cell-free assay, competition with immobilised ligand	1 µM	remaining binding	96%
